Measured values of several laboratories.
Compare with care: the assays were run in different laboratories. ± marks the error that the study gave.

| Structure (SMILES) | test | system | setting | how to read | endpoint | result |
| --- | --- | --- | --- | --- | --- | --- |
| COc1cccc2c1CCCC2CCCN1CCN(C2CCCCC2)CC1 (stereo not shown) |  | CD-1 mouse, male, lung | intraperitoneal, 10 mg/kg |  | Tmax | 15 min |
| CN1CC[C@@H](c2c(O)cc(O)c3c(=O)cc(-c4ccc(C(F)(F)F)cc4Cl)oc23)[C@@H]1CO | item: Diarrhea | B-cell malignancies or AML | oral, 100 mg, continuous dosing |  | patients with adverse event | 12.5% |
| CCN(CCO)CCCC(C)Nc1ccnc2cc(Cl)ccc12 (stereo not shown) |  | newly diagnosed glioblastoma patients | oral, 200 mg/dose, grade 3, with: radiotherapy and temozolomide |  | neutrophil decrease patients | 33% |
| CO[C@H]1C[C@@H]2CC[C@@H](C)[C@@](O)(O2)C(=O)C(=O)N2CCCC[C@H]2C(=O)O[C@H]([C@H](C)C[C@@H]2CC[C@@H](OC(=O)NCCOCCOCCOCCOCCOCCOCCOCCOCCC(=O)N3CCc4cc(Cn5nc(-c6ccc7oc(N)nc7c6)c6c(N)ncnc65)ccc4C3)[C@H](OC)C2)C[C@@H](O)[C@H](C)/C=C(\C)[C@@H](O)[C@@H](OC)C(=O)[C@H](C)C[C@H](C)/C=C/C=C/C=C/1C |  | patients with advanced solid tumours | intravenous, 6 mg weekly, any grade |  | nausea incidence | 50% |
| C[C@]1(CO)Cc2ncn(-c3ccc(C#N)c(Cl)c3)c2C(=O)O1 | investigator-assessed | human | 40 mg single dose |  | subjects with drug-related TEAEs | 0% |
| O=S(=O)(Nc1ccccc1)c1ccc(NC(=S)Nc2ccccc2)cc1 | item: ALT | male mouse, blood | oral, 80 mg/kg daily, 14 days |  | serum enzyme activity | 115 U/L |
| CC(C)C[C@@H]1NC(=O)CNC(=O)[C@H](CC(N)=O)NC(=O)[C@H](CCCNC(=N)N)NC(=O)[C@H]([C@@H](C)O)NC(=O)[C@@H]2CSSC[C@@H]3NC(=O)[C@H]([C@@H](C)O)NC(=O)CNC(=O)CNC(=O)[C@H](C(C)C)NC(=O)[C@@H]4CSSC[C@H](NC(=O)[C@H]([C@@H](C)O)NC(=O)[C@H](CSSC[C@H](NC(=O)[C@H](C(C)C)NC(=O)[C@@H]5CCCN5C1=O)C(=O)NCC(=O)N[C@@H](CCC(=O)O)C(=O)N[C@@H]([C@@H](C)O)C(=O)N4)NC(=O)CNC(=O)[C@@H]1CCCN1C(=O)[C@H]([C@@H](C)O)NC(=O)[C@H](CC(N)=O)NC3=O)C(=O)N[C@@H](CO)C(=O)N[C@@H](CCCCN)C(=O)N1CCC[C@H]1C(=O)N[C@@H](C(C)C)C(=O)N2 | HPLC | ammonium bicarbonate 0.1 M | 180 µM, 14 days, pH 9.0, 37 °C, deamidation stability |  | remaining peptide | 52.6 ± 2.4% |
| C=CCNc1c(O)cc2c(O)c1C[C@@H](C)C[C@H](OC)[C@H](O)[C@@H](C)/C=C(\C)[C@H](OC(N)=O)[C@@H](OC)/C=C\C=C(/C)C(=O)N2 |  | unresectable or metastatic STS, GIST, other | intravenous, 500 mg/m^2 |  | patients with nausea TEAE | 86% |
| CCN1[C@@H](C(=O)NC23CCC(C(=O)O)(CC2)CC3)[C@H](c2cccc(Cl)c2F)[C@]2(C(=O)Nc3cc(Cl)ccc32)C12CCCCC2 |  | patients with advanced solid tumours | oral, dose not given, all doses |  | grade 3/4 lymphocytopenia incidence | 33.3% |
| COc1cc(C2C3=C(COC3=O)N(CCO)c3cc4c(cc32)CCC4)cc(OC)c1OC (stereo not shown) |  | female Sprague-Dawley rats | intraperitoneal, 100 mg/kg, 24 h, single dose, mean |  | body weight | 204 g |
| Clc1ccc(-c2cccc(Cl)c2Cl)cc1Cl |  | polyethylene-water partitioning | PCB compilation | relative to: maximum over minimum K | literature range factor | 2 |
| CC(C)C[C@@H]1NC(=O)CNC(=O)[C@H](CC(N)=O)NC(=O)[C@H](CCCNC(=N)N)NC(=O)[C@H]([C@@H](C)O)NC(=O)[C@@H]2CSSC[C@@H]3NC(=O)[C@H]([C@@H](C)O)NC(=O)CNC(=O)CNC(=O)[C@H](C(C)C)NC(=O)[C@@H]4CSSC[C@H](NC(=O)[C@H]([C@@H](C)O)NC(=O)[C@H](CSSC[C@H](NC(=O)[C@H](C(C)C)NC(=O)[C@@H]5CCCN5C1=O)C(=O)NCC(=O)N[C@@H](CCC(=O)O)C(=O)N[C@@H](CCCCN)C(=O)N4)NC(=O)CNC(=O)[C@@H]1CCCN1C(=O)[C@H]([C@@H](C)O)NC(=O)[C@H](CC(N)=O)NC3=O)C(=O)N[C@@H](CO)C(=O)N[C@@H](Cc1c[nH]c3ccccc13)C(=O)N1CCC[C@H]1C(=O)N[C@@H](C(C)C)C(=O)N2 | HPLC | ammonium bicarbonate | 180 µM, 7 days, pH 9.0, 25 °C, deamidation stability |  | remaining peptide | 95.4 ± 0.6% |
| C=CC(=O)Nc1cc(Nc2nccc(Nc3cc(Cl)c(F)cc3C(C)(C)O)n2)c(OC)cc1N1CC[C@@H](N(C)C)C1 |  | human | oral, dose not given, phase I clinical |  | patients with adverse event Dizziness | 11.8% |
| CC(C)C[C@H](NC(=O)[C@H](Cc1ccccc1)NC(=O)[C@H](Cc1ccccc1)NC(=O)Cc1ccc(-c2ccccc2)cc1)C(=O)N[C@@H](CCCCN)C(=O)N[C@@H](CCCNC(=N)N)C(=O)N[C@H](C(=O)N[C@@H](Cc1c[nH]c2ccccc12)C(=O)N[C@@H](CCCCN)C(=O)N[C@@H](CCCNC(=N)N)C(=O)O)C(C)C |  | dog liver microsomes |  |  | hepatic clearance | 19.5 mL/min/kg |
| COc1ccc(-c2c(-c3ccc(C#N)c(F)c3)nc(N3CCC(N)CC3)n(C)c2=O)cc1F | item: Hepatic pain | human patients | oral, 60 mg, dose expansion |  | serious adverse event incidence | 5% |
| c1ccc2c(c1)ccc1c3ccccc3ccc21 |  | fresh water | 12 (unit not given), 20 °C, S30-2 sampler, 30 µm |  | log K(PDMS-water) | 4.75 ± 0.01 |
| CC/C(=C(\c1ccccc1)c1ccc(OCCN(C)C)cc1)c1ccccc1 |  | CD-1 mouse, male, plasma | intraperitoneal, 30 mg/kg |  | elimination rate constant | 2.15e-05 s⁻¹ |
| CN(C(=O)n1cnc(-c2ccc[n+]([O-])c2)c1)C1CCCCC1 |  | Wistar rat, cerebellum | oral, 10 mg/kg, 24 h, single dose |  | concentration | 17.3 ± 0.4 ng/g |
| O=C(Nc1ccccc1)C1CCN(C(=O)Oc2cccnc2)CC1 | Bond-Lader VAS | healthy women | 20 mg | relative to: pre-dose baseline, direction not given | change in well-coordinated–clumsy score | -7.6 |

| Structure (SMILES) | test | system | setting | how to read | endpoint | result |
| --- | --- | --- | --- | --- | --- | --- |
| Cc1cn([C@H]2O[C@@H](CO[P@@](=O)(N[C@@H](C)C(=O)OC(C)C)Oc3ccccc3)[C@H](O)[C@H]2F)c(=O)[nH]c1=O | item: blood CPK increased | human | 50 mg |  | patients with TEAE | 0% |
| N=C(N)NCCNC(=O)C1(Nc2ccccc2)CCN(Cc2ccccc2)CC1 |  | Sprague-Dawley rat, female, urine | intravenous, 2.5 mg/kg, time not given |  | unchanged urinary recovery | 1.6 ± 0.5% |
| CN1CCN(c2ccc(Nc3nccc(-c4ccnc(Cl)c4)n3)cc2C(F)(F)F)CC1 |  | zebrafish embryos | 50 µM, 5 d |  | toxicity | 30 ± 30% |
| CCCSc1ccc2nc(NC(=O)OC)[nH]c2c1 |  | mouse, blood | oral, 50 mg/kg, tolerability, mean |  | neutrophils | 11.7% |
| CN1CCN(S(=O)(=O)c2cc([N+](=O)[O-])ccc2N(CCOS(C)(=O)=O)CCOS(C)(=O)=O)CC1 |  | NSG mice female, brain | intraperitoneal, 10 mg/kg, 0.25 h |  | concentration | 130 nM |
| c1ccc2c(c1)-c1ccc3ccc4cccc5cc-2c1c3c45 |  | PDMS-water partitioning | PAH compilation |  | literature range of log K | 5.17 to 5.64 log units |
| CC(=O)c1c(C)c2cnc(Nc3ccc(C4CCN(CCS(C)(=O)=O)CC4)cn3)nc2n(C2CCCC2)c1=O |  | human, dose-escalation trial, plasma | oral, 50 mg twice daily, day 21, multiple doses |  | clearance | 2340 mL/min |
| CC(C)n1c(C2CCNCC2)nc2c([N+](=O)[O-])c(Br)c(Br)cc21 |  | patients with AML | 125 mg, systemic infection |  | AE leading to interruption | 2% |
| Clc1ccc(-c2cc(Cl)c(Cl)c(Cl)c2)cc1Cl |  | fresh water | 20 °C |  | log K(PDMS-water) | 5.98 ± 0.04 |
| C=CC(=O)N1CC[C@H](n2nc(C#Cc3cc(OC)cc(OC)c3)c3c(N)ncnc32)C1 |  | patients with advanced solid tumours | oral, dose not given, Vomiting, any grade, QD, all patients |  | adverse drug reaction incidence | 18.6% |
| COc1ccc(C[C@@H]2NC(=O)[C@H]([C@@H](C)O)NC(=O)[C@@H]3[C@@H]4CCN3C(=O)[C@@H]3Cc5cn(c6ccc(F)cc56)CCCCCCN(Cc5ccc(cc5)CCNC(=O)[C@]5(C)CCCN5C2=O)C(=O)CCC(=O)N[C@@H](C)C(=O)N[C@H](CNC(=O)CCCCC[N+](C)(C)C)C(=O)N[C@@H](Cc2cccc(c2)CNC(=O)CO4)C(=O)N3)cc1 | item: postural dizziness | human | dose not given |  | participants with adverse event | 0% |
| CCc1ccc(CC/C=C/c2ccc3c(c2)C(=O)CC3)cc1 |  | Sprague-Dawley rat, male, serum | oral, 450 mg/kg/day, 14 days |  | chloride | 104 mM |
| COc1ncccc1-c1cnn2ccc(N3CCN(C(=O)OC(C)C)CC3)nc12 |  | rat, STZ model, plasma | oral, 1 mg/kg, 240 min |  | free drug concentration | 2.3 nM |
| CC(C)C[C@H](NC(=O)[C@H](CCCCN)NC(=O)OCC1c2ccccc2-c2ccccc21)C(=O)N[C@H](C(=O)N[C@@H](Cc1ccccc1)C(=O)N[C@@H](Cc1ccccc1)C(=O)N[C@@H](CCCCN)C(=O)NCC(=O)N[C@@H](Cc1ccccc1)C(=O)N[C@@H](C)C(=O)N[C@@H](Cc1c[nH]c2ccccc12)C(=O)N[C@@H](CC(N)=O)C(=O)N[C@H](C(=O)N[C@H]1CSSC[C@@H](C(=O)N[C@@H](Cc2c[nH]cn2)C(=O)N[C@@H](CCCNC(=N)N)C(=O)N[C@@H](CCCNC(=N)N)C(=O)N[C@@H](C)C(=O)N[C@@H](CC(N)=O)C(N)=O)NC(=O)[C@H](C(C)C)NC(=O)[C@H](CCCNC(=N)N)NC(=O)[C@H](C(C)C)NC(=O)CNC(=O)[C@H](CC(N)=O)NC(=O)[C@H](CCCNC(=N)N)NC(=O)[C@H](Cc2ccc(O)cc2)NC(=O)[C@H](C(C)C)NC1=O)C(C)C)C(C)C |  | ICR mice, blood | intraperitoneal, 5 mg/kg, day 5 |  | eosinophils | 2.33 ± 0.16% |
| Cc1ccccc1C(=O)NN=Cc1ccc(O)c(Br)c1 |  | normal C3H/HeN mouse, plasma | intravenous, 1.6 mg/kg |  | AUC(0-t) | 193 ng·h/mL |
| COc1cc2c(Oc3ccc4[nH]c(C)cc4c3F)ccnc2cc1OCC1(N)CC1 |  | paediatric recurrent refractory sarcoma | 8 mg/kg |  | grade 1 or 2 Hypertension | 0% |
| O=C1Nc2cc3[nH]nc(-c4ccncc4)c3cc2CN1Cc1ccccc1 | CTCAE v4.03 | advanced solid tumour patients | intravenous, 9.6 mg/kg, schedules 1/2 |  | patients with decreased appetite | 11% |
| CC(C)CC(=O)OC[C@H]1O[C@@](C#N)(c2ccc3c(N)ncnn23)[C@H](O)[C@@H]1O |  | Sprague-Dawley rat, both sexes, urine | 80 mg/kg, time not given | relative to: dose | recovery in urine | 0.00199% |

A few entries again:
| Structure (SMILES) | test | system | setting | how to read | endpoint | result |
| --- | --- | --- | --- | --- | --- | --- |
| CC(C)C[C@H](NC(=O)[C@H](CCCCN)NC(=O)OCC1c2ccccc2-c2ccccc21)C(=O)N[C@H](C(=O)N[C@@H](Cc1ccccc1)C(=O)N[C@@H](Cc1ccccc1)C(=O)N[C@@H](CCCCN)C(=O)NCC(=O)N[C@@H](Cc1ccccc1)C(=O)N[C@@H](C)C(=O)N[C@@H](Cc1c[nH]c2ccccc12)C(=O)N[C@@H](CC(N)=O)C(=O)N[C@H](C(=O)N[C@H]1CSSC[C@@H](C(=O)N[C@@H](Cc2c[nH]cn2)C(=O)N[C@@H](CCCNC(=N)N)C(=O)N[C@@H](CCCNC(=N)N)C(=O)N[C@@H](C)C(=O)N[C@@H](CC(N)=O)C(N)=O)NC(=O)[C@H](C(C)C)NC(=O)[C@H](CCCNC(=N)N)NC(=O)[C@H](C(C)C)NC(=O)CNC(=O)[C@H](CC(N)=O)NC(=O)[C@H](CCCNC(=N)N)NC(=O)[C@H](Cc2ccc(O)cc2)NC(=O)[C@H](C(C)C)NC1=O)C(C)C)C(C)C |  | ICR mice, blood | intraperitoneal, 5 mg/kg, day 5 |  | eosinophils | 2.33 ± 0.16% |
| Cc1ccccc1C(=O)NN=Cc1ccc(O)c(Br)c1 |  | normal C3H/HeN mouse, plasma | intravenous, 1.6 mg/kg |  | AUC(0-t) | 193 ng·h/mL |
| COc1cc2c(Oc3ccc4[nH]c(C)cc4c3F)ccnc2cc1OCC1(N)CC1 |  | paediatric recurrent refractory sarcoma | 8 mg/kg |  | grade 1 or 2 Hypertension | 0% |
| O=C1Nc2cc3[nH]nc(-c4ccncc4)c3cc2CN1Cc1ccccc1 | CTCAE v4.03 | advanced solid tumour patients | intravenous, 9.6 mg/kg, schedules 1/2 |  | patients with decreased appetite | 11% |
